# Measured values collected from several papers.
# Parts stem from different laboratories: compare values within a part only.

# Block 1
# Target: RNA binding protein fox-1 homolog 2, RRM domain, GST-SBP tag (RBFOX2, Homo sapiens, UniProt O43251-10, residues 100-194)
# Method: RNA Bind-n-Seq
# Molecule type: RNA
# Sample: in vitro
# Tested at: 365 nM
# Notes: natural RNA segment, single round, ends assumed
# Baseline: no-protein control
# Reading: higher = stronger binding
# Construct (chain): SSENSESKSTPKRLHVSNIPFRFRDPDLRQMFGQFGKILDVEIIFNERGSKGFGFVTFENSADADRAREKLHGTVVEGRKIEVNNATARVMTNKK
Strand,RBNS enrichment (R)
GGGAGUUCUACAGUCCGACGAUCUUCAGUAGUGCCAGCAAGUGGGGGAAACUUUCAGUAUUGCGCUAGGUCAACACUUCCUGCUGCAUUUCCUUCCCUUUGCACAGCUUGAAGAAAUAGAGUAGACAGAAUCAUGGAAUUCUCGGGUGCCAA,0.613
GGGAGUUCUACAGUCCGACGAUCAUAUAAAGUUAAGUUAACAUACUAACAUUUCUCCUUUGGAGGAAGUUUUAAUCUACUUCAGGAUGCAUAUUAUUAUCAAGAUACUUUCAUAUACAGGAUAGCCUAAUUUUUGGAAUUCUCGGGUGCCAA,0.354
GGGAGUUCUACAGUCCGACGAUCAGUAAGGUUUCAAGGGAAUAUUAACUUGGUAUCAGGGCUACUUUUUUUUUUUUUUUUUUACUUGCAUGUCAUCCUUAAUGUCUAACAUGAAAAAUCAGCAAAGAGUAUGGUGGAAUUCUCGGGUGCCAA,2.83
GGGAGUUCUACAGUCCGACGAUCCAUUCUGGACCUCCCAGGAGUUGUUUAAGAAUGAAUCUCUUACACCUCUACUUUUGCCCCUCUACUGUAUAUUAAGCCCAUAGGCUUGUGGGAGGAAGGAGAAUUUCCAUUGGAAUUCUCGGGUGCCAA,0.334
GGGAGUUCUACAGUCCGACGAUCGUGCCAUUCACACUGGUCUUUUUCACAUUGUUUUGAGCUUAUUGCAGUAUAUGUUUUGGGAUUUUUCUGUAAAAUGGGUGUAAUUUUCCUAAUACAGGUAUGUAACAACAUGGAAUUCUCGGGUGCCAA,0.501
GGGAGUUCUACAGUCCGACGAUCGGUGCUGUGACUCCUGCUGCUGGGGAUUUAUGUCCCGAGACCUUAGCCUGGCUGAGUGGAGCCUGAGACCUGCACAACAGCUCAUGGUCAUGCAUGAGAGAGAAGUGGCUUGGAAUUCUCGGGUGCCAA,0.398
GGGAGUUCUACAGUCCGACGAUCUAUGAACGUAGUGUAGAGAAGCUGCCCUCCUCUUCCAUGGUAGCGCUCAAAGCCCUAAUGGAAGUUUAGCUCAUUUACAUUUGGAGACCCUUUUGGUUUUUUGGUUUUGGUGGAAUUCUCGGGUGCCAA,0.482
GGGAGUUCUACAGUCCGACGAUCAGAGUGUGGAGAUCAGUAACCAUAUCCUGAGGAAAGUGGUGAUUCCCCUGCUAGAUGAUUCACCCACAAACCUUCCCACCCAGGUGUUCUCUGAAAGCUUAGCCUCAAGGUGGAAUUCUCGGGUGCCAA,0.558
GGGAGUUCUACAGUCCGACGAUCUCAAAAAAAAAAAGUCCUCUUAAGGCCAGUAAUUUAUCUGAAAAGGUAUUUUAUCACACCUUGACACCUUAUAUAUGAGCCUAUUAGGAGCUGCAGGUGGUUUCAUAGGGUGGAAUUCUCGGGUGCCAA,0.32
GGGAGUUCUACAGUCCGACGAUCUUAUUUGUACUAAGAAGUAACUUGACCCAAAACACCUUUUAUGUUUGCUUAGGGUAUAUUUUUUCAGUGUCUGAAAGUCAAAGGUAUUCCUGUCACAACUGUAAACAAACUGGAAUUCUCGGGUGCCAA,0.417
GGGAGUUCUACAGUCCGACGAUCAUUUUGCUAGAGCUCAAGUAAUAGAAACUUAGUUUCAGAAUCCUGAAUCCAACAUCUAUUUGGAAUGAAUGUAAGACCACAGGUAGCAGGCAUACUCCUGCUUAGGAUAAUGGAAUUCUCGGGUGCCAA,0.702
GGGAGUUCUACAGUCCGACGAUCGACCUGGUCCCUUAGAGCUCCAUAUCCCAGUCCCAGCCCUUCUUUGCAGCUGGGCCUCUCUAUACCCCUGGAUGAACAGCUUGCUCAGGCCCCAGGGUGGCUGCCUCGGCUGGAAUUCUCGGGUGCCAA,1.14

# Block 2
# Target: Histone acetyltransferase KAT6A, winged helix 1, GST fusion (KAT6A, Homo sapiens, UniProt Q92794, residues 1-85)
# Method: protein binding microarray
# Molecule type: double-stranded DNA, one strand shown
# Sample: in vitro
# Tested at: not given
# Notes: 8-mer, flanks averaged, mean of 2 arrays, mostly near background
# Baseline: not given
# Reading: higher = stronger binding
# Construct (chain): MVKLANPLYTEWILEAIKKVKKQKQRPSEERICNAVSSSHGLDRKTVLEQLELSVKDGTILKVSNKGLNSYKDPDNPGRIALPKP
Strand,E-score
ATAGTGAC,-0.062
CTTTCGAA,-0.168
CCGGTAAG,0.232
CGTTGATC,-0.0989
CGGAGCAC,0.156
AGAGTGGC,-0.125
GTCGCGTA,0.286
ATGAGACC,-0.108
GAATGGTA,-0.24
AAACGTCG,0.0576
AGAATAAC,-0.0965
AAGCAATT,-0.0343
AAATAAAT,-0.167
GGCGCAGA,0.21
CCGGGTAA,0.157
ACCGTTTG,0.0576
GGGATCAA,-0.061
CTGAAAAG,-0.102
AGCCCCCC,-0.0933
CTCAACCC,-0.149
CGCCCTGC,0.226
GCGGGGAA,0.239
GCCTGATA,0.00556

# Block 3
# Target: Fragile X messenger ribonucleoprotein 1, C-terminal low-complexity region (Fmr1, Mus musculus, UniProt P35922)
# Method: RNA Bind-n-Seq
# Molecule type: RNA
# Sample: in vitro
# Tested at: 200 nM
# Notes: whole 134-nt RNA, ends assumed
# With: 150 mM LiCl
# Baseline: input library
# Reading: higher = stronger binding
# Each molecule: 7-deaza-guanosine replaces G
Strand,log2 enrichment
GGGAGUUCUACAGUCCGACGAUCGCAGGAAGUAAAAAAAAAUGGAAAUGCUUCGGAUAGUGGCAGGGGUGGGGGUUGCUAAGGAAAGGGUGGGAUGGGAGUGGGUAAAGAGUUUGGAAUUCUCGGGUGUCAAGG,1.43
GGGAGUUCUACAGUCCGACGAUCCCUCAAGUCCUGUGCUACACAUCGUAUGUACCGAAUCGGGGCGGGGCGGGCGGAAAGUAUUAUGUUACGCCGUUCGGAUCUGCACUUCCAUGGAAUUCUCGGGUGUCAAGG,-0.767
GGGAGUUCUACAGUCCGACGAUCAGUCCUGUGCUACACAUCGUAUGUACCGAAUCGGGUUUUUUUGGGUUUUUGGGAGGGAAAGUAUUAUGUUACGCCGUUCGGAUCUGCACUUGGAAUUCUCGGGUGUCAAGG,-0.764
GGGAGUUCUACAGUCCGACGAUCUCCUGUGCUACACAUCGUAUGUACCGAAUCGGGGAAAGGGGAAAAAGGGGAAAAAGGGGAAAGUAUUAUGUUACGCCGUUCGGAUCUGCAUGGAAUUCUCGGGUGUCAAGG,0.133
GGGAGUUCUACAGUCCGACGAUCCAAGUCCUGUGCUACACAUCGUAUGUACCGAAUCGGAGGAAAAAGGAAAAAAAGGAAAGUAUUAUGUUACGCCGUUCGGAUCUGCACUUCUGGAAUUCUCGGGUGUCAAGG,-0.128
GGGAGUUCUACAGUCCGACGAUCUGGCCCUGGUGGCAUGCGGGGAGGAAGAGGAGGCCUCAUGGAUCGUGGUGGUCCCGGUGGAAUGUUCAGAGGUGGCCGUGGUGGAGACAGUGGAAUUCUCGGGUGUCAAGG,-0.252
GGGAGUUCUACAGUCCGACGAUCGCAGGAAGUAAAAACAAAUGGAAAUGCUUCGGAUAGUGGCAGGGGUGGGGGUUGCUUAGGAAAGGGUGGGAUGGGAGUGGGUAAAGAGUUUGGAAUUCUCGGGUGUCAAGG,1.16
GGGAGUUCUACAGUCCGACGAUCAGUCCUGUGCUACACAUCGUAUGUACCGAAUCGGGGUUUUGGUUUUGGGGUUUUGGGAAAGUAUUAUGUUACGCCGUUCGGAUCUGCACUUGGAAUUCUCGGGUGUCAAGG,-1.62
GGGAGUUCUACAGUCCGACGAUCGCUUAUGUAGACAUGAGGAAGAUUGGCAGUAGCCGGGGAAUGGUUUCUGCAUACCCUCGACAGCUAGAGUCAUUAAUCCGCUUAGCAGAAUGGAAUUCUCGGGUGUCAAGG,1.03
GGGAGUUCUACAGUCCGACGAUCUCAAGUCCUGUGCUACACAUCGUAUGUACCGAAUCGGGCCCGGGGCCCGGCCCGGAAAGUAUUAUGUUACGCCGUUCGGAUCUGCACUUCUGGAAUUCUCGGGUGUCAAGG,-2.76
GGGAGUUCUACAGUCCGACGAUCUCGGAGGUGGAUUUUGUUUAUUUUUUUAGCUCAUUUCCAGGGGUGGGAAUUUUUUUUUAAUAUGUGUCAUGAAUAAAGUUGUUUUUGAAAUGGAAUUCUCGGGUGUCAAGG,0.542

# Block 4
# Target: Sal-like protein 4, full length isoform B (SALL4, Homo sapiens, UniProt Q9UJQ4-2, residues 1-616)
# Method: universal PBM
# Molecule type: double-stranded DNA, one strand shown
# Sample: in vitro
# Tested at: not given
# Notes: 8-mer, flanks averaged, mean of replicates
# Reading: higher = stronger binding
# Construct (chain): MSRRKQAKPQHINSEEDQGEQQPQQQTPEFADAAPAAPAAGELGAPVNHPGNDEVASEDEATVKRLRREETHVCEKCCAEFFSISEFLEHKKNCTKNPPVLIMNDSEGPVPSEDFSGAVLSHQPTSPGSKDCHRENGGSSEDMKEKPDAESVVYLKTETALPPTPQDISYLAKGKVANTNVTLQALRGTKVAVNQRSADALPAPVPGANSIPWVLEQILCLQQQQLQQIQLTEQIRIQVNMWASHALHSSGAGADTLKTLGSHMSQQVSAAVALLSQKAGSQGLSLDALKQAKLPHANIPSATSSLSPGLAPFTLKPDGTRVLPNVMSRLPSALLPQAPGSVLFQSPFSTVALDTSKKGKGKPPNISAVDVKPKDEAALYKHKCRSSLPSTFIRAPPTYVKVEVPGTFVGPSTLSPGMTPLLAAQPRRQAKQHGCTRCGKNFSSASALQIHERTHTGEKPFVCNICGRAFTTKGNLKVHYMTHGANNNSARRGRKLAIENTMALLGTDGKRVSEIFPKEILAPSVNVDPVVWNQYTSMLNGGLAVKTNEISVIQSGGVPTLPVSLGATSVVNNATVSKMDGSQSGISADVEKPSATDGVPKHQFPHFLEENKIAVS
Strand,E-score
AGCAGCGG,-0.435
ACGCCTCA,-0.0375
CAATCCAA,0.0046
ACTAGCCT,0.0316
AATTGAAC,0.138
CGAAAGGC,-0.103
ACGAAGCA,-0.019
CTTTGAGC,-0.191
TAAATTCA,0.304
CAACATAG,0.13
ATGCCGCA,-0.0707
AACTTGGG,-0.0435
GCCATGAA,-0.104
GAACAATA,0.339
CGGCCCAC,-0.309
CGGTTCAG,-0.26
CCCCCCAA,-0.197
TGTAGCAA,0.146
AGAATCTG,-0.00606
CCCCTTAA,-0.0901
AAGCCGAC,-0.233

# A few entries again (block 4):
Strand,E-score
CTTTGAGC,-0.191
TAAATTCA,0.304
CAACATAG,0.13
ATGCCGCA,-0.0707
AACTTGGG,-0.0435
GCCATGAA,-0.104
GAACAATA,0.339
CGGCCCAC,-0.309
CGGTTCAG,-0.26
CCCCCCAA,-0.197
TGTAGCAA,0.146
